Results of several laboratories.
Numbered parts are unrelated; each lists some results of a single study.
Chain of UniProt Q8N752 (whole entry, looked up): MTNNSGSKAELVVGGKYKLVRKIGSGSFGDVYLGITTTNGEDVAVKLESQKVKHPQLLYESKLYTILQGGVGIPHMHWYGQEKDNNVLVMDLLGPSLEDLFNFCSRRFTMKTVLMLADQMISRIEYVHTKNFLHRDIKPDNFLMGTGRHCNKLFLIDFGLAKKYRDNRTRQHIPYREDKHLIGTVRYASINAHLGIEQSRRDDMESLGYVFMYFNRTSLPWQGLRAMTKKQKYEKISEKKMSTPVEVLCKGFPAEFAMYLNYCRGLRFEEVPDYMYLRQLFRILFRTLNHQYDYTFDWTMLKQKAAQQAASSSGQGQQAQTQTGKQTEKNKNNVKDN
Chain of UniProt Q16512 (whole entry, looked up): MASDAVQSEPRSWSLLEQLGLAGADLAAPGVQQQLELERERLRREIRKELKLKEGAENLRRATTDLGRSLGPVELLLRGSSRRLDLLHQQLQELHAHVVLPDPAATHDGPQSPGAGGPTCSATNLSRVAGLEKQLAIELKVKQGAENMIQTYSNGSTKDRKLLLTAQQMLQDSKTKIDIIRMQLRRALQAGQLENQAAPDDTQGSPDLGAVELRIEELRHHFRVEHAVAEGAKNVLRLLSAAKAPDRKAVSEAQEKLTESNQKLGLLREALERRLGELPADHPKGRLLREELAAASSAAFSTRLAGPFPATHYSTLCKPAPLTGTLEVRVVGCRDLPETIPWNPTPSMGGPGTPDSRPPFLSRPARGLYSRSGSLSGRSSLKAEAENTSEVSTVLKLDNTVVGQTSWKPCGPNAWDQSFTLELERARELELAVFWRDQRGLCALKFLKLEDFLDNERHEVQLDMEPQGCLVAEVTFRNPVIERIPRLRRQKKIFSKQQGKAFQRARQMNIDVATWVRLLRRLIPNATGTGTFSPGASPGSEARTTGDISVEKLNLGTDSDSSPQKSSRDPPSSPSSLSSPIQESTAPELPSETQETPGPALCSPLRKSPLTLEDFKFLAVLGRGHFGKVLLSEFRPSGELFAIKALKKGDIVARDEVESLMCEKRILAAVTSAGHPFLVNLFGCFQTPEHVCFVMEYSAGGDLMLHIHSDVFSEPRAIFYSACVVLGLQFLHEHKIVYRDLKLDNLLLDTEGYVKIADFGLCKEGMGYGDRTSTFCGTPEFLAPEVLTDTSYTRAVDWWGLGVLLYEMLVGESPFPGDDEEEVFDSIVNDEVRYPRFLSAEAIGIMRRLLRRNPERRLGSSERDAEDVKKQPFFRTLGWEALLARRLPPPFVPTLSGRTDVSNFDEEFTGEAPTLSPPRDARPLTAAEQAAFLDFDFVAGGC
Chain of UniProt O75716 (whole entry, looked up): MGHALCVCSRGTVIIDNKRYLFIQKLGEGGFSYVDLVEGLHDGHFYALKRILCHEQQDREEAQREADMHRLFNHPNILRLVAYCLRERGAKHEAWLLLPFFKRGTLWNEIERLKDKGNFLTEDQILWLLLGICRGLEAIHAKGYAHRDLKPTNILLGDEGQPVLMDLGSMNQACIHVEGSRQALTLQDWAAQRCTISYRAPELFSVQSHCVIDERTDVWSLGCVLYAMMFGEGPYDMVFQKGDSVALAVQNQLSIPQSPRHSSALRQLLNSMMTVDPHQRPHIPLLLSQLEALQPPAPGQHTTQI
Chain of UniProt Q15375 (whole entry, looked up): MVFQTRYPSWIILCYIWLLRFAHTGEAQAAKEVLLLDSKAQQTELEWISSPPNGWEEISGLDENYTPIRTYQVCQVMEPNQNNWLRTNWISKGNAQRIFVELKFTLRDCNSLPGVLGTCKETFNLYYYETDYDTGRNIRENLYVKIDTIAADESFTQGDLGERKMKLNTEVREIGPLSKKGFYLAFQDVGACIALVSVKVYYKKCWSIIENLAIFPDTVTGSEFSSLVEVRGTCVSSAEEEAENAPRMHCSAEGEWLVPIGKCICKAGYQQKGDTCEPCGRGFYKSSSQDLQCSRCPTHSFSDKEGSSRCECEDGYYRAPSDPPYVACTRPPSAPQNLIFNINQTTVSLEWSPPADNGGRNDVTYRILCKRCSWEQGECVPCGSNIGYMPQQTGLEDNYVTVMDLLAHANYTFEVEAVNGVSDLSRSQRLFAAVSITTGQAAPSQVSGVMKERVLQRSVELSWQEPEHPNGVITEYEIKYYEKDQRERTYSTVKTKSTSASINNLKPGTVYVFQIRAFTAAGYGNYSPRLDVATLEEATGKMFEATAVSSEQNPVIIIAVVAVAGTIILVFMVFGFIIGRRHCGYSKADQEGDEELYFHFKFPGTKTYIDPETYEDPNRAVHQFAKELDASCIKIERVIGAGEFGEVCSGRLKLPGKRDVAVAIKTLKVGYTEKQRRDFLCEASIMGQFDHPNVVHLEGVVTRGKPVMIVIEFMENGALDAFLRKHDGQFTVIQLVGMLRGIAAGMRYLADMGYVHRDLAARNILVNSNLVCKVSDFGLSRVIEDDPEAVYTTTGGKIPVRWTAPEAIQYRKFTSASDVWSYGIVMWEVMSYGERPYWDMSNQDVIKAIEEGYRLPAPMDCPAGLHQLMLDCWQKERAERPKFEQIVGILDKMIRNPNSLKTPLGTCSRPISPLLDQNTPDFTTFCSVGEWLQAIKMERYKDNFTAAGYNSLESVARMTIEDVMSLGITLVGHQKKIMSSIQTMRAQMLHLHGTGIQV
Chain of UniProt Q99683 (whole entry, looked up): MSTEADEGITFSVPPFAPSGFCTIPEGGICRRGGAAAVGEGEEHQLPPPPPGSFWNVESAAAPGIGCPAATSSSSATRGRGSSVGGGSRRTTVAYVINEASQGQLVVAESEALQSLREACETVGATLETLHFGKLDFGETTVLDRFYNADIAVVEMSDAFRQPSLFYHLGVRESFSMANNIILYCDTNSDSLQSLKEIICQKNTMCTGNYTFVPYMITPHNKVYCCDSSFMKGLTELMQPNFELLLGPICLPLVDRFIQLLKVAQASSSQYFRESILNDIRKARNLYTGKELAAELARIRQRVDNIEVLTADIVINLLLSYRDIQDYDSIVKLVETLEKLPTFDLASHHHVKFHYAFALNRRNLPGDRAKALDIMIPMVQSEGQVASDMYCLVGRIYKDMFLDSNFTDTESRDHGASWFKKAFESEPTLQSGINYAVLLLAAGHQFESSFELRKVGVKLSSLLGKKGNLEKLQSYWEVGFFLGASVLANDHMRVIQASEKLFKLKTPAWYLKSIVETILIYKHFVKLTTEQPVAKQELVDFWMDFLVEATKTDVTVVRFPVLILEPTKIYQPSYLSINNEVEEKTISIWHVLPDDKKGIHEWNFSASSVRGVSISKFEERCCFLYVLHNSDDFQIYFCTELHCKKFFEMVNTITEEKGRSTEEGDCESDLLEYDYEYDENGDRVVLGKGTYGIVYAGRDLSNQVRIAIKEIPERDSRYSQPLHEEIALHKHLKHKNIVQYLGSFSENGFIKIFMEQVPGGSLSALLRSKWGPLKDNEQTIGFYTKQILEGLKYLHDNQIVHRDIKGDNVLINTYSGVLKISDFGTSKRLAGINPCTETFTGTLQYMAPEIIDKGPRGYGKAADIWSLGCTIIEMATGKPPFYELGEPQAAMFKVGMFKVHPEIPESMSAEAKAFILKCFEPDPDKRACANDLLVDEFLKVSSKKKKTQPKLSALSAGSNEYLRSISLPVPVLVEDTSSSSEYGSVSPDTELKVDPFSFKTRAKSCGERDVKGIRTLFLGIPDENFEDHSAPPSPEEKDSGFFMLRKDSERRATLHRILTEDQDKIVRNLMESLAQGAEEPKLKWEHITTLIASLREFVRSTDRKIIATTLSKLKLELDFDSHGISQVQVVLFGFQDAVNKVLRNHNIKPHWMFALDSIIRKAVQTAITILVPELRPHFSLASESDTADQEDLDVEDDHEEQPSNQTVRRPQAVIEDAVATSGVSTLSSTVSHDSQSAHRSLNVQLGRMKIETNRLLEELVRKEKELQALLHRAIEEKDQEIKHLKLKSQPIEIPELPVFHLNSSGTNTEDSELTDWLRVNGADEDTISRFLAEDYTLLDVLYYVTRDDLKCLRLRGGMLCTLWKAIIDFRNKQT
Chain of UniProt P52333 (whole entry, looked up): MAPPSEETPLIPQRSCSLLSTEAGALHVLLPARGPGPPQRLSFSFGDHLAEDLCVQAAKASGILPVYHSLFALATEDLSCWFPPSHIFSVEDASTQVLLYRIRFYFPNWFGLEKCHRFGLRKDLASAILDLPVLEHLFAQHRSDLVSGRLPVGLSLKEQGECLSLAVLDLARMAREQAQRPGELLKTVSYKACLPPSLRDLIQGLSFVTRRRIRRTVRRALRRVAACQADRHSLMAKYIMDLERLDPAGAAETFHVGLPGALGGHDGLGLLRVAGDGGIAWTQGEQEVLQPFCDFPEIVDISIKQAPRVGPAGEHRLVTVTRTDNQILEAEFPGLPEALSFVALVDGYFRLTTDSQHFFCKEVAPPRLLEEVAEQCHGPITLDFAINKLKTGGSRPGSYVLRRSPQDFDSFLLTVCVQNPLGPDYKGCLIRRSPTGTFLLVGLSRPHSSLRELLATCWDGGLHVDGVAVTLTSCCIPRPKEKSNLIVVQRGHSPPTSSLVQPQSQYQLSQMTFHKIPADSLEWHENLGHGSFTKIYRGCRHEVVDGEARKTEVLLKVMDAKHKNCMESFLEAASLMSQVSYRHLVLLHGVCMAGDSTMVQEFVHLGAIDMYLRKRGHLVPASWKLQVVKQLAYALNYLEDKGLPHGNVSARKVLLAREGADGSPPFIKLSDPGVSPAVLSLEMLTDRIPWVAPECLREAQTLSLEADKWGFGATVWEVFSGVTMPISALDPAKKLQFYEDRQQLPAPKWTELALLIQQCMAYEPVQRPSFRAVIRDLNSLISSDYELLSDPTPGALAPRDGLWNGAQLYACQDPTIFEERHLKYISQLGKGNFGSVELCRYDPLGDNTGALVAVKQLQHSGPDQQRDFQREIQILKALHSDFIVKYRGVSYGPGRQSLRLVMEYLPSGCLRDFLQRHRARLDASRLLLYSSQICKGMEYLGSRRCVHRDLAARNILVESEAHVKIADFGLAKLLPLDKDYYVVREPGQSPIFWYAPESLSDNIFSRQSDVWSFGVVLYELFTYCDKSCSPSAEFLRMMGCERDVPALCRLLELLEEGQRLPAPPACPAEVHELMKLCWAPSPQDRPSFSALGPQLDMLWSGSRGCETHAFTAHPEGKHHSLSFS

Set 1
SMILES: C[C@H]1CC[C@H](n2c3cnccc3c3cnc(Nc4ccc5c(n4)CCN(C(=O)CO)C5)nc32)CC1
Effect on: cell-free assay
Concentration: 1 µM
| target | remaining signal [%] |
| --- | --- |
| PIK3CB (Homo sapiens, UniProt P42338) | 100 |
| RIPK1 (Homo sapiens, UniProt Q13546) | 97 |
| PRKD1 (Homo sapiens, UniProt Q15139) | 100 |
| LATS2 (Homo sapiens, UniProt Q9NRM7) | 46 |
| PKN1 (Homo sapiens, UniProt Q16512) | 91 |

Set 2
Structure (SMILES): O=C(Nc1cccnn1)N1CC(C/C=C/c2cncc(Oc3ccc(C(F)(F)F)cn3)n2)C1
Concentration: 1 µM
| target | effect on | technique | remaining binding [%] |
| --- | --- | --- | --- |
| DMPK (Homo sapiens, UniProt Q09013) | cell-free assay | competition with immobilised ligand | 100 |
| STK16 (Homo sapiens, UniProt O75716) | cell-free assay | competition with immobilised ligand | 98 |
| CSNK1A1L (Homo sapiens, UniProt Q8N752) | cell-free assay | competition with immobilised ligand | 100 |
| EPHA7 (Homo sapiens, UniProt Q15375) | cell-free assay | competition with immobilised ligand | 100 |
| MAPK11 (Homo sapiens, UniProt Q15759) | cell-free assay | competition with immobilised ligand | 100 |
| CDK19 (Homo sapiens, UniProt Q9BWU1) | – | competition binding | 84 |

Set 3
Target: Diamine acetyltransferase 1 (Homo sapiens, UniProt P21673)
Mode: inhibitor
Concentration: 10 µM
Baseline: control
Construct (P21673 1-171): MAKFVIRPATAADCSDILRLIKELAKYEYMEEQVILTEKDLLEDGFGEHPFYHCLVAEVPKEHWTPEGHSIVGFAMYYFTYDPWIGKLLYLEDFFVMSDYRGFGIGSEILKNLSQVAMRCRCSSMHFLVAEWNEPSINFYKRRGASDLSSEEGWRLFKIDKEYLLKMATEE
| SMILES | remaining activity |
| --- | --- |
| OCCCc1ccc(O)cc1 | 104% |
| O=c1c(O)c(-c2ccccc2)oc2cc(O)cc(O)c12 | 92.6% |
| CCCCCCCC/C=C\CCCCCCCCCCCC(=O)O | 89.1% |
| O=c1[nH]c(=O)c2ncn([C@@H]3O[C@H](CO)[C@@H](O)[C@H]3O)c2[nH]1 | 94.5% |
| COc1ccc(-c2cc(=O)c3c(O)cc(O)cc3o2)cc1 | 84.8% |
| C[C@@H]1O[C@@H](O[C@H]2[C@H](Oc3cc(O)c4c(=O)cc(-c5ccc(O)cc5)oc4c3)O[C@H](CO)[C@@H](O)[C@@H]2O)[C@H](O)[C@H](O)[C@H]1O | 95% |

Set 4
SMILES: CNc1cc2c(Nc3cccc(Br)c3)ncnc2cn1
Effect on: enzyme activity
Mode: inhibitor
Concentration: 0.5 µM
Baseline: control
| target | remaining activity |
| --- | --- |
| ULK2 (Homo sapiens, UniProt Q8IYT8) | 119% |
| MAP3K5 (Homo sapiens, UniProt Q99683) | 94.6% |
| MAPKAPK2 (Homo sapiens, UniProt P49137) | 99.6% |
| EPHA3 (Homo sapiens, UniProt P29320) | 96.1% |
| NEK6 (Homo sapiens, UniProt Q9HC98) | 89.8% |
| ACVR1B (Homo sapiens, UniProt P36896) | 97.7% |
| CSNK1G2 (Homo sapiens, UniProt P78368) | 95.8% |
| JAK3 (Homo sapiens, UniProt P52333) | 103% |
| WEE1 (Homo sapiens, UniProt P30291) | 75.9% |
| GSK3B (Homo sapiens, UniProt P49841) | 89.6% |
| ULK3 (Homo sapiens, UniProt Q6PHR2) | 95.8% |
| FGFR3 (Homo sapiens, UniProt P22607) | 85.4% |
| MAP3K14 (Homo sapiens, UniProt Q99558) | 126% |
| MAP2K2 (Homo sapiens, UniProt P36507) | 90.4% |

A few entries again (set 4):
| target | remaining activity |
| --- | --- |
| EPHA3 (Homo sapiens, UniProt P29320) | 96.1% |
| NEK6 (Homo sapiens, UniProt Q9HC98) | 89.8% |
| ACVR1B (Homo sapiens, UniProt P36896) | 97.7% |
| CSNK1G2 (Homo sapiens, UniProt P78368) | 95.8% |
